Experimental data from different studies.
Lines come from different studies, so protocols differ. ± gives the spread as reported.

N=C(N)NCCC[C@@H]1NC(=O)[C@H](CCCCNC(=O)CNC(=O)CNC(=O)CNC(=O)CC[C@H](NC(=O)CCOCCOCCOCCOCCNC(=O)CC[C@H](NC(=O)CN2CCN(CC(=O)O)CCN(CC(=O)O)CCN(CC(=O)O)CC2)C(=O)NCCOCCOCCOCCOCCC(=O)N[C@@H](CCC(=O)NCC(=O)NCC(=O)NCC(=O)NCCCC[C@@H]2NC(=O)[C@@H](Cc3ccccc3)NC(=O)[C@H](CC(=O)O)NC(=O)CNC(=O)[C@H](CCCNC(=N)N)NC2=O)C(=O)NCC(=O)NCC(=O)NCC(=O)NCCCC[C@@H]2NC(=O)[C@@H](Cc3ccccc3)NC(=O)[C@H](CC(=O)O)NC(=O)CNC(=O)[C@H](CCCNC(=N)N)NC2=O)C(=O)NCC(=O)NCC(=O)NCC(=O)NCCCC[C@@H]2NC(=O)[C@@H](Cc3ccccc3)NC(=O)[C@H](CC(=O)O)NC(=O)CNC(=O)[C@H](CCCNC(=N)N)NC2=O)NC(=O)[C@@H](Cc2ccccc2)NC(=O)[C@H](CC(=O)O)NC(=O)CNC1=O [indium-111 labelled]  tumour to tissue ratio (athymic nude mice, female, U-87 MG glioma xenograft, tumour and liver; intravenous, 24 h; baseline: tumour over liver): 6.46 ± 1.33
CC(=O)N[C@H](C(=O)N[C@@H](CCCCNC(=O)CCC(=O)OC[C@@H]1O[C@H](n2ccc(N)nc2=O)CS1)C(=O)N[C@H](C(=O)N[C@@H](CCCCNC(=O)CCC(=O)OC[C@@H]1O[C@H](n2ccc(N)nc2=O)CS1)C(=O)N[C@H](C(=O)N[C@@H](CCCCNC(=O)CCC(=O)OC[C@@H]1O[C@H](n2ccc(N)nc2=O)CS1)C(=O)N[C@@H](CCC(=O)O)C(=O)N[C@@H](CCC(=O)O)C(=O)N[C@@H](CCC(=O)O)C(N)=O)C(C)C)C(C)C)C(C)C  serum chemistry (mouse; concentration not given, liver and kidney markers): not toxic
CSCC[C@H](NC(=O)[C@H](CC(C)C)NC(=O)[C@H](Cc1c[nH]cn1)NC(=O)CNC(=O)[C@@H](NC(=O)[C@H](C)NC(=O)[C@H](Cc1c[nH]c2ccccc12)NC(=O)[C@H](CCC(N)=O)NC(=O)CCCCCNC(=O)CNC(=O)CNC(=O)CNC(=O)CSC(C)=O)C(C)C)C(N)=O [technetium-99m labelled]  tissue uptake (Swiss mouse, bone; intravenous, 18.5 MBq, 240 min): 0.4 ± 0.11 %ID/g
N=C(N)NCCC[C@@H]1NC(=O)[C@H](CCCCNC(=O)c2ccc(CNC34CNCCNCC(NCc5ccc(C(=O)NCCCC[C@@H]6NC(=O)[C@@H](Cc7ccc(O)cc7)NC(=O)[C@H](CC(=O)O)NC(=O)CNC(=O)[C@H](CCCNC(=N)N)NC6=O)cc5)(CNCCNC3)CNCCNC4)cc2)NC(=O)[C@@H](Cc2ccc(O)cc2)NC(=O)[C@H](CC(=O)O)NC(=O)CNC1=O [copper-64 labelled]  intact compound (HPLC; nude mouse, U-87 MG xenograft, kidney; 1 h post injection): > 95%
CCCC[C@H](NC(=O)CNC(=O)[C@H](CO)NC(=O)CNC(=O)c1ccc(NN)nc1)C(=O)N[C@H]1CC(=O)NCCCC[C@@H](C(N)=O)NC(=O)[C@H](Cc2c[nH]c3ccccc23)NC(=O)[C@H](CCCNC(=N)N)NC(=O)[C@@H](Cc2ccccc2)NC(=O)[C@H](Cc2c[nH]cn2)NC1=O [technetium-99m labelled]  uptake (C57 mouse, B16/F1 melanoma, brain; intravenous, 2 h): 0.07 ± 0.11 %ID/g
N=C(N)NCCC[C@@H]1NC(=O)[C@H](CCCCNC(=O)CC[C@H](NC(=O)CCOCCOCCOCCOCCNC(=O)CN2CCN(CC(=O)O)CCN(CC(=O)O)CCN(CC(=O)O)CC2)C(=O)NCCCC[C@@H]2NC(=O)[C@@H](Cc3ccccc3)NC(=O)[C@H](CC(=O)O)NC(=O)CNC(=O)[C@H](CCCNC(=N)N)NC2=O)NC(=O)[C@@H](Cc2ccccc2)NC(=O)[C@H](CC(=O)O)NC(=O)CNC1=O [indium-111 labelled]  tumour to tissue ratio (athymic nude mice, female, U-87 MG glioma xenograft, tumour and kidney; intravenous, 72 h; baseline: tumour over kidney): 1.08 ± 0.14
CCCC[C@H](NC(=O)CCCCCCCNC(=O)c1ccc(NN)nc1)C(=O)N[C@H]1CC(=O)NCCCC[C@@H](C(N)=O)NC(=O)[C@H](Cc2c[nH]c3ccccc23)NC(=O)[C@H](CCCNC(=N)N)NC(=O)[C@@H](Cc2ccccc2)NC(=O)[C@H](Cc2c[nH]cn2)NC1=O [technetium-99m labelled]  tissue uptake (C57 mouse, B16/F1 melanoma, skin; 2 h, with: L-lysine 12 mg co-injected): 0.54 ± 0.1 %ID/g
N=C(N)NCCC[C@@H]1NC(=O)[C@H](CCCCNC(=O)CC[C@H](NC(=O)CCOCCOCCOCCOCCNC(=O)CC[C@H](NC(=O)CN2CCN(CC(=O)O)CCN(CC(=O)O)CCN(CC(=O)O)CC2)C(=O)NCCOCCOCCOCCOCCC(=O)N[C@@H](CCC(=O)NCCCC[C@@H]2NC(=O)[C@@H](Cc3ccccc3)NC(=O)[C@H](CC(=O)O)NC(=O)CNC(=O)[C@H](CCCNC(=N)N)NC2=O)C(=O)NCCCC[C@@H]2NC(=O)[C@@H](Cc3ccccc3)NC(=O)[C@H](CC(=O)O)NC(=O)CNC(=O)[C@H](CCCNC(=N)N)NC2=O)C(=O)NCCCC[C@@H]2NC(=O)[C@@H](Cc3ccccc3)NC(=O)[C@H](CC(=O)O)NC(=O)CNC(=O)[C@H](CCCNC(=N)N)NC2=O)NC(=O)[C@@H](Cc2ccccc2)NC(=O)[C@H](CC(=O)O)NC(=O)CNC1=O [indium-111 labelled]  tissue uptake (athymic nude mice, female, U-87 MG glioma xenograft, U-87 MG tumour; intravenous, 3 µCi, 0.5 h): 13 ± 5.99 %ID/g
CCCC[C@H](NC(=O)CNC(=O)CNC(=O)c1ccc(NN)nc1)C(=O)N[C@H]1CC(=O)NCCCC[C@@H](C(N)=O)NC(=O)[C@H](Cc2c[nH]c3ccccc23)NC(=O)[C@H](CCCNC(=N)N)NC(=O)[C@@H](Cc2ccccc2)NC(=O)[C@H](Cc2c[nH]cn2)NC1=O [technetium-99m labelled]  tissue uptake ratio (C57 mouse, B16/F1 melanoma-bearing; intravenous, 4 h; baseline: tumour over liver): 22.1

A few entries again:
CC(=O)N[C@H](C(=O)N[C@@H](CCCCNC(=O)CCC(=O)OC[C@@H]1O[C@H](n2ccc(N)nc2=O)CS1)C(=O)N[C@H](C(=O)N[C@@H](CCCCNC(=O)CCC(=O)OC[C@@H]1O[C@H](n2ccc(N)nc2=O)CS1)C(=O)N[C@H](C(=O)N[C@@H](CCCCNC(=O)CCC(=O)OC[C@@H]1O[C@H](n2ccc(N)nc2=O)CS1)C(=O)N[C@@H](CCC(=O)O)C(=O)N[C@@H](CCC(=O)O)C(=O)N[C@@H](CCC(=O)O)C(N)=O)C(C)C)C(C)C)C(C)C  serum chemistry (mouse; concentration not given, liver and kidney markers): not toxic
